Measured values pooled from the literature.
Each line is one published result; not all experiments were run side by side. “And” joins repeats or separate records; there may be more than shown. ± marks the error that the study gave.

| SMILES | assay | system | setting | scale | endpoint | value |
| --- | --- | --- | --- | --- | --- | --- |
| O=C(Nc1cnccc1Cl)N1CCN(Cc2ccc3c(c2)OC(F)(F)O3)CC1 | – | healthy young men, urine | oral, 25 mg once daily, day 10 | – | renal clearance | 0.017 L/h |
| CC[C@H](C)[C@H](NC(=O)[C@H](Cc1ccccc1)NC(=O)[C@H](CCC(=O)O)NC(=O)[C@H](CCCCNC(=O)COCCOCCNC(=O)COCCOCCNC(=O)CC[C@H](NC(=O)CCCCCCCCCCCCCCCCC(=O)O)C(=O)O)NC(=O)[C@H](C)NC(=O)[C@H](C)NC(=O)[C@H](CCC(N)=O)NC(=O)CNC(=O)[C@H](CCC(=O)O)NC(=O)[C@H](CC(C)C)NC(=O)[C@H](Cc1ccc(O)cc1)NC(=O)[C@H](CO)NC(=O)[C@H](CO)NC(=O)[C@@H](NC(=O)[C@H](CC(=O)O)NC(=O)[C@H](CO)NC(=O)[C@@H](NC(=O)[C@H](Cc1ccccc1)NC(=O)[C@@H](NC(=O)CNC(=O)[C@H](CCC(=O)O)NC(=O)C(C)(C)NC(=O)[C@@H](N)Cc1cnc[nH]1)[C@@H](C)O)[C@@H](C)O)C(C)C)C(=O)N[C@@H](C)C(=O)N[C@@H](Cc1c[nH]c2ccccc12)C(=O)N[C@@H](CC(C)C)C(=O)N[C@H](C(=O)N[C@@H](CCCNC(=N)N)C(=O)NCC(=O)N[C@@H](CCCNC(=N)N)C(=O)NCC(=O)O)C(C)C | 12-lead Holter ECG | healthy humans | subcutaneous, 1.5 mg once weekly, 12 h, steady state | baseline: placebo | QTcB change from baseline | 7.9 ms |
| C[Si](C)(C)O[Si](C)(C)O[Si](C)(C)C | – | – | 2.7 to 6.3 µg/L, 20.8 °C | – | log KOA | 3.79 |
| O=C(O)c1cc(O)c(O)c(O)c1 | – | chicken broilers, duodenum vs crop content | oral, 2000 mg/kg feed | baseline: crop | digestibility increase | 17.2% |
| CCn1c(=O)c(-c2cc(NC(=O)Nc3ccccc3)c(F)cc2Br)cc2cnc(NC)cc21 | refers to: investigations | healthy human, matched to moderate hepatic impairment | oral, 50 mg single dose | – | participants with grade ≥ 3 TEAE | 0% |
| COc1ccc2c3c([nH]c2c1)[C@H](CC(C)C)N1C(=O)[C@H](CC(=O)NC(C)C)NC(=O)[C@@H]1C3 | – | Fech-mutant mouse, liver | oral, 100 mg/kg daily, 5 days | – | liver protoporphyrin IX | 167 ng/g and 87.7 ng/g and 84.3 ng/g |
| OC[C@H]1O[C@@H](c2ccc(F)c(Cc3cc4ccccc4s3)c2)[C@H](O)[C@@H](O)[C@@H]1O | – | Japanese patients, type 1 diabetes | oral, 50 mg/day, onset day 12 | baseline: patients | hypoglycaemia-related adverse event | 4% |
| O=C(N[C@H](Cc1c[nH]c2ccccc12)C(=O)Nc1ccncc1)c1ccc(-c2cc(C(F)(F)F)ccc2F)cc1F | – | Swiss Webster mouse, female, lung | oral, 50 mg/kg, 8 h, 20% HPβCD vehicle | – | concentration | 32.2 µM |
| Cc1nc(-c2ccc(OCC(C)C)c(C#N)c2)sc1C(=O)O | – | healthy Chinese subjects | oral, 40 mg single, fasting | – | participants with AEs grade 1 or above | 12.8% |
| C[C@@H](Oc1ccc(S(C)(=O)=O)cc1C(=O)N1C[C@@H]2C[C@]2(c2cc(C(F)(F)F)on2)C1)C(F)(F)F | – | healthy young humans | oral, 75 mg single dose | – | CL/F | 133 mL/min |
| O=C(Nc1ccc(OC(F)(F)Cl)cc1)c1cnc(N2CC[C@@H](O)C2)c(-c2ccn[nH]2)c1 | – | human patients | oral, dose not given | baseline: records | lipase increase incidence | 1.9% |
| CSc1ccccc1C(=O)NCCn1cc(C(=O)NCc2cccc(C)n2)c(=O)c2cc3c(cc21)OC(F)(F)O3 | – | Sprague-Dawley rat, male, plasma | intravenous, 20 mg/kg of parent drug | – | AUC(0-t) | 1110 ± 44.9 ng·h/mL |
| CCc1cc(C(=O)NC)c2nccc(N3CCc4c(cc(Cn5ccnc5)cc4-c4cn(C)nc4C(F)(F)F)C3=O)c2c1 | – | Sprague Dawley rat | oral, 100 mg/kg once daily, 7 days | – | heart weight | 0.98 ± 0.044 g |
| CC(C)(C(=O)N1CCOc2c(C#N)cncc2C1)C(F)F | refers to: medical device site dermatitis | human, both sexes | oral, 20 mg once daily, 14 days, multiple ascending dose | – | subjects with TEAE | 0% |
| COc1ccc2nc(-c3cc(N(C)C)ccn3)c(Nc3ccc(F)cc3)n2c1 | – | peritoneal macrophages, Swiss mice | 5 days, 5% fetal calf serum | – | CC50 | 7.94 µM |
| Nc1ncc(-c2ccncc2)nc1Nc1ccc2[nH]ccc2c1 | – | C57BL mice, plasma | subcutaneous, 10 mg/kg | – | tmax | 15 min |
| CCOc1c([C@H](C)n2nc(C)c3c(N)ncnc32)cc(Cl)c(F)c1[C@@H]1CNC(=O)C1 | refers to: QTcF above 500 ms | previously treated B-cell malignancy | oral, 30 mg once daily, baseline QTcF ≤450 ms | – | ECG observations | 0% |
| N#Cc1ccc2c(c1)[C@H]1CCCN(C(=O)c3ccc4[nH]cnc4c3)[C@H]1C2 | – | human, male | 40 mg, day 7 | – | DHEA-S level | 4.7 µmol/L |
| CO[C@H]1C[C@@H]2CC[C@@H](C)[C@@](O)(O2)C(=O)C(=O)N2CCCC[C@H]2C(=O)O[C@H]([C@H](C)C[C@@H]2CC[C@@H](O)[C@H](OC)C2)CC(=O)[C@H](C)/C=C(\C)[C@@H](O)[C@@H](OC)C(=O)[C@H](C)C[C@H](C)/C=C/C=C/C=C/1C | – | healthy adult horses | oral, 0.06 mg/kg, 2 h | – | rectal temperature | 36.9 ± 0.4 °C |
| O=C(OC(C(F)(F)F)C(F)(F)F)N1CCN(Cc2cccc(Oc3ccccc3)c2)CC1 | PET blocking study | rhesus monkey, brain THA | 0.1 mg/kg, compound pretreatment, together with: [18F]T-401 tracer | – | k2 | 0.074 min⁻¹ |
| Cl.O=C(c1cc(Cc2n[nH]c(=O)c3ccccc23)ccc1F)N1CC(CNC2CC2)C1 | – | athymic nude mouse sample A PDX, tumour | oral, 12.5 mg/kg, 24 h | – | tumour concentration | > 100 ng/g |
| COC(=O)C(C(=O)OC)=S(NC(=O)C(C)(C)C)c1ccccc1 (stereo not drawn) | – | human liver microsomes | – | baseline: hepatic blood flow | metabolic stability | > 89% |
| CCN1/C(=C/C(C)=O)Sc2ccc(F)cc21 | – | cynomolgus monkey | oral, 100 mg/kg, 4 h post-dose | – | QRS duration | 36 ± 1 ms |
| CC[C@H](C)[C@H](NC(=O)[C@H](Cc1ccccc1)NC(=O)[C@H](CCC(=O)O)NC(=O)[C@H](CCCNC(=N)N)NC(=O)[C@H](C)NC(=O)[C@H](C)NC(=O)[C@H](CCC(N)=O)NC(=O)[C@H](CCC(=O)O)NC(=O)[C@H](CCC(=O)O)NC(=O)[C@H](CC(C)C)NC(=O)[C@H](Cc1ccc(O)cc1)NC(=O)[C@H](CO)NC(=O)[C@H](CO)NC(=O)[C@@H](NC(=O)[C@H](CC(=O)O)NC(=O)[C@H](CO)NC(=O)[C@@H](NC(=O)[C@H](Cc1ccccc1)NC(=O)[C@@H](NC(=O)CNC(=O)[C@H](CCC(=O)O)NC(=O)[C@H](C)NC(=O)CCc1c[nH]cn1)[C@@H](C)O)[C@@H](C)O)C(C)C)C(=O)N[C@@H](C)C(=O)N[C@@H](Cc1c[nH]c2ccccc12)C(=O)N[C@@H](CC(C)C)C(=O)N[C@H](C(=O)N[C@@H](CCCNC(=N)N)C(=O)NCC(=O)N[C@@H](CCCNC(=N)N)C(=O)N[C@@H](CCCCNC(=O)COCCOCCNC(=O)COCCOCCNC(=O)CC[C@H](NC(=O)CCCCCCCCCCCCCCCCC(=O)O)C(=O)O)C(=O)O)C(C)C | UPLC-MS | rat, plasma | subcutaneous, 20 nmol/kg | – | Vz/F | 0.166 L/kg |
| CO[C@H]1CC[C@H](N2C(=O)CNc3ncc(-c4ccc(C(C)(C)O)nc4)nc32)CC1 | – | patients, urine | oral, 45 mg, day -1, geometric mean | – | renal clearance | 0.05 L/h |
| Cn1cncc1[C@@](N)(c1ccc(Cl)cc1)c1ccc2c(c1)c(-c1cccc(Cl)c1)cc(=O)n2C | – | healthy human, plasma | intravenous, 25 mg | – | Vss | 126 L |
| C[C@H]1C=C(Cc2ccccc2)C(=O)O1 | – | Staffordshire loam sediment, aerobic dark | 20 °C | – | DT50 sediment | 19.5 days |
| CNC(=O)c1ccc(-c2cnc3ncc(Cc4ccc5ncccc5c4)n3n2)cc1F | – | human mild hepatic impairment NCI | oral, 200 mg single dose, mean | – | AUC(0-t) | 7190 ng·h/mL |
| CCN1CCN(Cc2ccc(NC(=O)c3ccc(C)c(NC(=O)c4cncc(-c5cccs5)c4)c3)cc2C(F)(F)F)CC1 | – | C57BL/6 mouse, plasma | intraperitoneal, 20 mg/kg, 0.25 to 8.0 h, single dose | – | AUC/dose | 0.11 kg·µg·h/mL/mg |
| NCCONC(=O)[C@@H]1CC[C@@H]2CN1C(=O)N2OS(=O)(=O)O | – | human, male, urine | intravenous infusion, 2 g multiple doses, day 9 | baseline: dose | cumulative urinary excretion (0-24 h) | 87.1% |
